Published values pooled from the literature.
Numbered parts are unrelated; each lists some results of a single study. Changes are numbered by the printed parent chain.

Set 1 — method: competition protein-binding microarray; molecule type: double-stranded DNA, one strand shown; medium: in vitro; tested at: 2 µM; added: Cbf1 competitor, 0.05 µM; reading: higher = stronger binding; endpoint: fluorescence intensity; constant ends, left off below: … GTCTTGATTCGCTTGACGCTGCTG
Target: Phosphate system positive regulatory protein PHO4, full length, GST-tagged (PHO4, Saccharomyces cerevisiae, UniProt P07270, residues 1-312)
Notes: whole 60-bp probe, lowest competitor level
Target sequence (chain): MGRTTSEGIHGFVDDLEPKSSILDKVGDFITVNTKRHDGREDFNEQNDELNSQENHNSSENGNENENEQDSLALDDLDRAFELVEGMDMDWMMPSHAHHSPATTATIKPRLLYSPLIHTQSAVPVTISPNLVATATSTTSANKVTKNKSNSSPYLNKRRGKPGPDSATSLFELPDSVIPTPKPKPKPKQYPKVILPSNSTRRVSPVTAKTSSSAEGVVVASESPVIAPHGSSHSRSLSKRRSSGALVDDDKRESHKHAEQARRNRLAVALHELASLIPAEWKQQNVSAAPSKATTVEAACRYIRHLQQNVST
CTTGTTAATCTTATCCATGTGGAATCCCCACCACCA: 8110 a.u.
TGGCGCCATCGCCATCACGATTTCAACCATGTCAAT: 5030 a.u.
CTAACGAAGGTTTGCGCAGTGGGTGACAAGCCAAGT: 3940 a.u.
CGGAATATGTTAGACCATGTGGTACCGTCGTTTTGG: 11000 a.u.
TTTGTTTTCATCTGGGTTGTGACAGTTGATGATAAC: 4260 a.u.
CGAATAACTTTCAAACGCGTGCGATGTTTGTTACCA: 13200 a.u.
CGTCCTAGTGATTGTCACGCCACTTCCATGAGGAAG: 6970 a.u.
GTAACCCAGTAACATCAGGTGCACCATCACTACAAA: 5620 a.u.
TATTACGCCTGCAACCCCGTGCTAAGCTAGAATGTC: 9750 a.u.
TTCCATTTACACCGTCACGCTTTCCAAACCATCCAG: 7190 a.u.
CGGGGTTAAGTTTGTTGCGTGGGTGGCTTGCAGCAG: 6810 a.u.
GAGGCACTGCCTCTCCGCGTGAATGTCACTGAGTCG: 5870 a.u.
GATTATTGGCTAAGTACCGTGATGGTGGTAAGATTG: 5050 a.u.
TAGCTCCGCTTTATTCACGTGAAATGGGGTCGAAAT: 9580 a.u.
TTTCTTGGAATTTTTCACATGTTTGCAGTGAATAAA: 5890 a.u.
CTTTCCCGATCTTGTCGTGTGGGTGTAGCACATTTG: 5990 a.u.
TGCGCAACAACTTGCTCCGTGGGTGTATGTCTAGAA: 5850 a.u.
TATCAGATCAGCCATCACGTGCCGAGTCGTTAGAAA: 14900 a.u.
AAATTACTAAGTTGTTTTGTGGGTGACGCCGTATGA: 3990 a.u.
CGATTAGCTGAGGATCAGGCGGTACATTGCATACTC: 3150 a.u.
GCAATTGGATCTCACCACGTGGATTTAAAGATGGAC: 16800 a.u.
ATTGTTGCTAAAAACGACATGACAACCATGAAGTAC: 6490 a.u.

Set 2 — method: DHFR PCA, deep sequencing; medium: yeast; added: (+)-ABA 710 µM; relative to: wild-type fitted maximum; reading: higher = stronger binding; endpoint: relative binding score
Target: ABI1, truncated, D143A, DHFR fusion (Arabidopsis thaliana)
Notes: methotrexate growth selection, single substitutions
Parent: PYL1, truncated, DHFR fusion (Arabidopsis thaliana); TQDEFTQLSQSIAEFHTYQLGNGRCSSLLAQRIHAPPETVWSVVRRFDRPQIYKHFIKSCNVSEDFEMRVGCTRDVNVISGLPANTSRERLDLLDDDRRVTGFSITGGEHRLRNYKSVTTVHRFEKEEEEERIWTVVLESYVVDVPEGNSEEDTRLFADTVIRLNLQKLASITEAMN
T17W: 83.6%
S42W: 89.6%
R113G: 97.7%
I172C: 98.9%
S63T: 107%
E130L: 109%
H122Y: 38.1%
Y115I: 0.525%
S171A: 102%
W41L: -2.21%
V142I: 94.2%
L138C: 88.5%
C72W: 89.8%
W41G: -28.5%
F103M: 89.2%
V40S: 4.79%

Set 3 — method: RNA Bind-n-Seq; molecule type: RNA; medium: in vitro; tested at: not given; relative to: input RNA pool; reading: higher = stronger binding; endpoint: bound/input enrichment
Target: RING finger protein unkempt homolog, zinc fingers 1-6, GST-SBP tag (UNK, Homo sapiens, UniProt Q9C0B0, residues 30-357)
Chain of UniProt Q9C0B0 (30-357, looked up): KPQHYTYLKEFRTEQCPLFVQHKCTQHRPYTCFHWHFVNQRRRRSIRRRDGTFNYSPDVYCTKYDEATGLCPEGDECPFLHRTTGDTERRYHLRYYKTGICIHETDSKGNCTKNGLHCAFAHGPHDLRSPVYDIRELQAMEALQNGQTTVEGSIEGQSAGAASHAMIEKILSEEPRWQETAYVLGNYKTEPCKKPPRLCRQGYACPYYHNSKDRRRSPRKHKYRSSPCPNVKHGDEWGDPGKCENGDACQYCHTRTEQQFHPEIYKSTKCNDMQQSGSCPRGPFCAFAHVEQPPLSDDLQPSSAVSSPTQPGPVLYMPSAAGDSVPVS
Notes: RNA with constant flanks, human-mouse chimeric sites, ends assumed
Constant ends, left off below: GGGAGUUCUACAGUCCGACGAUC … CAACAGAGGAUUGAGCAUCA
ACCUCCCCCUCCCGCCUGCUUUUUGAACCGCUUUUUGAAAGUGUGUUGGCGUUUCUUUUCCUUCCCCAUACAAAGUGAUUACAGUUUCCCCCGCAAGGGUCUAUCGAAGGGCUUGACGGA: 0.609 ratio
GCCACCAGAUCCCAGAAACAUGACCCUUGCUGCCUACAAAGAGAAGAUGAAGGAGCUCCCGCUGGUGUCUCUGUUCUGCUCCUGCUUCCUGGCCGAUCCCCUGAAUAAGUCGUCCUACAA: 0.351 ratio
AAAGAACUACUGAGGCAAGGCAGCAAAUUUAGAAGAAACAUUUCAACAAUAUUGAUAGAGUUAGGAUUCCAAAUUAAAAAAAAAACUAAGACAUUAUACAUCAACAAAGCCAAUGUGUGG: 27.3 ratio
AACUUUGUGCAUCGGUUUCCCUUUGUAGCUGUUUCAAUUGGCUUUGCUGUGAAUAAAGAGAUGGAGUUUGGAAUUGUGUACAGCUGUGUGGAAGAUAAGAUGUACACCGGCAGGAAAGGG: 0.474 ratio
AUCAAAUAUUUUGGGGACAUCAUUAGUGUGGGACAGAGACUGUUGCAAGGGGCCCGGAUCUUAGGGAUUCCAGUUAUCAUAACGGAACAAUACCCCAAAGGACUUGGCAGCACCGUUCAA: 0.257 ratio
CUGAGGAUACCACUGAAGAGACCUUAAAAGAAUCAUUUUGACGGCUCGUUCGUGCAAGAAUAGUCACUGAUCGGGAAACUGGUUCUUCCAAAGGGUUUUGGUUUUGUGACUUUAAUAGUG: 0.215 ratio
CACAGAGGAGAUCUGCUGUUCCUCACGAAUUUCCGGGAGGACCCCAUCAGAGCUGGUGAAAUAGUUGUUUUUAAAGUUGAAGGAAGAGACAUUCCGAUAGUUCACAGAGUAAUCAAAGUU: 3.67 ratio
UCAACAGACAACAUCAAAUACCAGCCUAAGGGGGGUCAGGUACAAAUUGUUACUAAGAAAAUAGACCUAAGCCAUGUGACAUCCAAAUGUGGCUCUCUGAAGAACAUCCGCCACAGGCCA: 0.498 ratio

Set 4 — method: universal PBM; molecule type: double-stranded DNA, one strand shown; medium: in vitro; tested at: 600 nM; reading: higher = stronger binding; endpoint: E-score
Target: Sal-like protein 4, full length isoform A (SALL4, Homo sapiens, UniProt Q9UJQ4, residues 1-1053)
Chain of UniProt Q9UJQ4 (whole entry, looked up): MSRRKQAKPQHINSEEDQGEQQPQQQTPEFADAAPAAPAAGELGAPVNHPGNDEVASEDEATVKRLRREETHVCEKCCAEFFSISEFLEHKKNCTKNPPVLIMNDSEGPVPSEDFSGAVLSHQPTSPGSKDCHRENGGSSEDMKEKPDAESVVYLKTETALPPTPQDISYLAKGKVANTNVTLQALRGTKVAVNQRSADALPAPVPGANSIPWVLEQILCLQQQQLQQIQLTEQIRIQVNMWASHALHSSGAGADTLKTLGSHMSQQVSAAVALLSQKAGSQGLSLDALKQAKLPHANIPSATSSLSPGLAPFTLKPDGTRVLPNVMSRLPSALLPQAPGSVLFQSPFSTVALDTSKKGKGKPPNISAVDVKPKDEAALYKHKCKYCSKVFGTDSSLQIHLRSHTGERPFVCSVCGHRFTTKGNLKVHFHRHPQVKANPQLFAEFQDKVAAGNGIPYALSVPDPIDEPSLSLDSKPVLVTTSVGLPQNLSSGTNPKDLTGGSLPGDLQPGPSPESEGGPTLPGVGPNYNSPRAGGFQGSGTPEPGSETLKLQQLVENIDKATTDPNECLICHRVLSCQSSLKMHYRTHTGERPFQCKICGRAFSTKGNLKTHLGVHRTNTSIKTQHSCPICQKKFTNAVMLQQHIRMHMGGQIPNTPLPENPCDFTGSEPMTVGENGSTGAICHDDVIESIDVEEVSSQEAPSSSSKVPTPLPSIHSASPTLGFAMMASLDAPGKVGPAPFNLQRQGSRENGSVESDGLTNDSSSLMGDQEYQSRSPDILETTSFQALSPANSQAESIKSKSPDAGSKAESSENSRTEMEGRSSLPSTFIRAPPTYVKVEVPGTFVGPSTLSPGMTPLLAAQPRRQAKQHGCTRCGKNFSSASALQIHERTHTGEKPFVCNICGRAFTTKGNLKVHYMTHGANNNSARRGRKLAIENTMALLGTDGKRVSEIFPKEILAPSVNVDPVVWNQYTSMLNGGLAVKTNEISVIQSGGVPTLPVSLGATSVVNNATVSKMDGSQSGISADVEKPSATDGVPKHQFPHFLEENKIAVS
Notes: 8-mer, flanks averaged, mean of replicates
AACGGGCC: -0.229
CCAACCTA: -0.0371
TAATCGTA: 0.25
CTCCAATC: -0.198
AATGTAAT: 0.321
GGTAGTGA: -0.145
GCCCTACC: -0.119
ACCGAGCA: -0.265
CTAGTATC: 0.031
ACGGCGAA: -0.0379
TCCAGAAA: 0.114
CGCACGCA: -0.254
TCACGTGA: 0.0779
GCGGCCCA: -0.326
AAAGATGA: 0.251
AAAGGTAC: -0.00351
AACGGTTC: -0.16
GAGGGCCC: -0.403
ATCGTCAG: 0.0574
GCAACGGC: -0.126
GCTAAGCC: -0.245
ACAGAACG: -0.11
CTGTCGGC: -0.294
ATCGATAC: 0.147
AAGGGCTC: -0.262

Set 5 — target: CCNA1, cyclin fold, Cln2 fusion (human); method: yeast growth competition, sequencing; medium: yeast; notes: weak parent motif; relative to: not given; reading: higher = stronger binding; endpoint: normalised enrichment score
Parent: BRCA2 docking peptide (human); CKKRRALDFLSRL; partner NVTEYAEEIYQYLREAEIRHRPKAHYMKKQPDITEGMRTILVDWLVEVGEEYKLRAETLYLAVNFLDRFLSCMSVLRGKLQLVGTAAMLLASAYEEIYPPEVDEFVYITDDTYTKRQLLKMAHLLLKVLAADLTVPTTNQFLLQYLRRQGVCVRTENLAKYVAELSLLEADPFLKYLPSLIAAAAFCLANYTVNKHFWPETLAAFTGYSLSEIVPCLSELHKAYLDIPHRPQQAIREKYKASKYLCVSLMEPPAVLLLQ
CKKRRALDALSRL [F9A]: 0.388
CKKRRAADFLSRL [L7A]: 0.511
CKKRRALDFLARL [S11A]: 0.346
CKKRRALDLLSRL [F9L]: -0.178
AKKRRALDFLSRL [C1A]: -0.114
CAKRRALDFLSRL [K2A]: 0.157
CKKRRALDFLSRA [L13A]: 0.473

Set 6 — method: protein binding microarray; molecule type: double-stranded DNA, one strand shown; medium: in vitro; tested at: not given; relative to: not given; reading: higher = stronger binding; endpoint: E-score
Target: Histone acetyltransferase KAT6A, both winged helices, GST fusion (KAT6A, Homo sapiens, UniProt Q92794, residues 1-181)
Notes: 8-mer, flanks averaged, mean of 2 arrays, mostly near background
Target sequence (chain): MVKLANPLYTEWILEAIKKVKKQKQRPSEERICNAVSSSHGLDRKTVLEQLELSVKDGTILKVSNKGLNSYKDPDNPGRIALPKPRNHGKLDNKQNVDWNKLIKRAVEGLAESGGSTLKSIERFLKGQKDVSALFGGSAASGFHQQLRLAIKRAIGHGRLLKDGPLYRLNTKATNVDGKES
GCCCCCGA: 0.0474
ACGGACGT: 0.143
GCCAGATA: -0.173
ACATGGCA: -0.0714
ATACAGAA: -0.0464
ATAACACA: -0.13
CCATCATA: -0.221
AAACTGGA: -0.134
CAAAATTA: 0.0371
ACGCGGCC: 0.214
CATTAATC: -0.0101
ACTCCTGC: -0.183
AAGAGAGT: -0.11
CTTTAAAC: -0.209
ATCCTTCG: 0.00611
ATGTCTCA: -0.112
CAGAAGCG: 0.121
AGGGCGTG: 0.0797
AAGCATTC: 0.00208
AGCCACAG: -0.143
GAGACTGA: -0.122
AGTGGCCG: -0.0197
GTTGGCGA: 0.141
GCGTACGA: 0.195
CAGCGCTC: 0.22

Set 7 — method: aptamer microarray, sandwich; molecule type: DNA with 2'F-ANA; medium: in vitro; tested at: 200 nM; added: Cy3 exosite-II aptamer, 400 nM; reading: higher = stronger binding; endpoint: mean fluorescence intensity; sequence: GGTTGGTGTGGTTGG
Target: Prothrombin, mature alpha-thrombin (F2, Homo sapiens, UniProt P00734)
Notes: whole 15-mer aptamer, many near background
2'F-ANA at 1 4 5 7 9 10 11 15: 50.5 a.u.
2'F-ANA at 1 2 3 6 7 8 10 11 13 14: 58.2 a.u.
2'F-ANA at 3 11: 1130 a.u.
2'F-ANA at 1 2 4 6 7 8 12 13 14: 58.6 a.u.
2'F-ANA at 1 2 6 8 11 14 15: 61 a.u.
2'F-ANA at 1 2 3 4 5 6 7 8 10 11 12 14: 44.1 a.u.
2'F-ANA at 1 4 6 9 10 11 12 14: 73.3 a.u.
2'F-ANA at 3 5 6 7 8 11 14: 59.9 a.u.
2'F-ANA at 2 4 8 9 10 11 13 14 15: 57.8 a.u.
2'F-ANA at 2 3 4 5 7 8 9 11 12 13 15: 99.2 a.u.

Some of these lines once more (set 6):
GCCAGATA: -0.173
GCGTACGA: 0.195
ATGTCTCA: -0.112
CAGCGCTC: 0.22
AGCCACAG: -0.143
GAGACTGA: -0.122
